Published values pooled from the literature.
Every numbered part comes from another study and shows a few of its results, in no order. Several values in a cell are separate wells, animals, samples, runs or records.

Series 1
SMILES: COc1ccc2c(c1)O[C@@H](c1ccc(OC)c(OC)c1)C[C@H]2NC(=O)C1(c2ccc3c(c2)OC(F)(F)O3)CC1 (single isomer, unassigned)
Tested at: 1 µM
Reference: DMSO
Quantity: viability
sample B colorectal tumour organoid: 99.1% and 92.2%
normal adjacent epithelium organoid sample G; CellTiter-Glo: 108%
normal adjacent epithelium organoid sample E; CellTiter-Glo: 77.1%
normal-adjacent epithelium patient-derived organoids sample G; CellTiter-Glo: 108% and 109%
normal adjacent epithelium organoid sample D; CellTiter-Glo: 70.9%
normal-adjacent epithelium patient-derived organoids sample F; CellTiter-Glo: 102% and 78.3%
normal-adjacent epithelium patient-derived organoids sample E; CellTiter-Glo: 72.1% and 82.1%

Series 2
Cell line: A-375
Tested at: 100 µM
Time: 36 h
Quantity: viability
C[n+]1ccccc1/C=N/O: 110%
Nc1nc(N)c2nc(-c3ccccc3)c(N)nc2n1: 14.6%
OCCc1ccccc1: 130%
O=C(Oc1ccccc1C(=O)O)c1ccccc1O: 116%
[H]/N=C(/N)N/C(=N/[H])NCCc1ccccc1: 63.8%
CC(C)=CCC[C@](C)(O[C@@H]1O[C@H](CO[C@@H]2O[C@@H](CO)[C@H](O)[C@H]2O)[C@@H](O)[C@H](O)[C@H]1O)[C@H]1CC[C@]2(C)[C@@H]1[C@H](O)C[C@@H]1[C@@]3(C)CC[C@H](O[C@@H]4O[C@H](CO)[C@@H](O)[C@H](O)[C@H]4O[C@@H]4O[C@H](CO)[C@@H](O)[C@H](O)[C@H]4O)C(C)(C)[C@@H]3CC[C@]12C: 89.7%
CC(N)CCCC(C)(C)O (stereo not drawn): 79%

Series 3
Target: Maternal embryonic leucine zipper kinase (MELK, Homo sapiens, UniProt Q14680)
Sequence of UniProt Q14680 (whole entry, looked up): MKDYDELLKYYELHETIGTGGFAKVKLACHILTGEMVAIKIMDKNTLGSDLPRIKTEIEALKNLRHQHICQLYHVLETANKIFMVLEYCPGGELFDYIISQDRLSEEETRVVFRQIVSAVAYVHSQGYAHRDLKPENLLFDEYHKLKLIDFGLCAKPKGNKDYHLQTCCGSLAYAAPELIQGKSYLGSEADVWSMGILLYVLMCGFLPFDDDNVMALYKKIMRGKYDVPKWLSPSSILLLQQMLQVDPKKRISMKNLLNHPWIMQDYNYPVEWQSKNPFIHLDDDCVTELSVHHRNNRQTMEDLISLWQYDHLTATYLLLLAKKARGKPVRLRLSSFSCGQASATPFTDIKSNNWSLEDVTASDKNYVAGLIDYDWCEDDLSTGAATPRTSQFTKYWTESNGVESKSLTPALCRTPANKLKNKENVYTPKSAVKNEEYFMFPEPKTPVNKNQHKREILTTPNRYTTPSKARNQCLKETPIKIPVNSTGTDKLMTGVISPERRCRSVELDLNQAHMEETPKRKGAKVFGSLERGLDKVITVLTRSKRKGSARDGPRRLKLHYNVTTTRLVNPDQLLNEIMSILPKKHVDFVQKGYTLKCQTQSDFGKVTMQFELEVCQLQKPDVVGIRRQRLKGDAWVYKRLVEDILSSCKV
Read-out: enzyme activity
Mode: inhibitor
Tested at: 0.5 µM
Reference: control
Quantity: remaining activity
CCN(CC)CCCCN1c2ccccc2Oc2ccc(Cl)cc21: 95.3%
CC(C)n1cnc2c(Nc3cccc(Cl)c3)nc(NCCO)nc21: 59.7%
COc1cc2c(N3CCN(C(=O)Nc4ccc(OC(C)C)cc4)CC3)ncnc2cc1OCCCN1CCCCC1: 87.9%
N#CC(c1ccnc(NCCc2cccnc2)n1)c1nc2ccccc2s1 (stereo not drawn): 91.7%
O=C(O)/C=C/c1cc(Br)c(Br)c(Br)c1Br: 91%
NC(=O)c1ccc(-c2nc(-c3ccc4c(c3)OCCO4)c(-c3ccccn3)[nH]2)cc1: 95%
FC(F)(F)c1ccc(/C=C/c2nc(COc3ccc(CCCCn4ccnn4)cc3)co2)cc1: 85.4%
O=Nc1c(-c2c(O)[nH]c3ccccc23)[nH]c2ccccc12: 33.3%
NC(=O)c1cccc(-c2cc(Nc3ccc(OC(F)(F)F)cc3)ncn2)c1: 94.5%

Series 4
Organism: Sarcocystis neurona
Read-out: parasite growth
Tested at: 10 µM
Time: 96 h
Reference: untreated
Quantity: log2 fold change
Nc1ccc(S(=O)(=O)c2ccc(N)cc2)cc1: 0.29
CC(C)(C(=O)c1cccnc1)c1cccnc1: 0.39
O=C(O)C[C@H](O)C[C@H](O)/C=C/c1c(C2CC2)nc2ccccc2c1-c1ccc(F)cc1: -0.1
CC1=C(/C=C/C(C)=C/C=C/C(C)=C\C(=O)O)C(C)(C)CCC1: 0.38
CC(C(=O)O)c1cccc(C(=O)c2ccccc2)c1 (stereo not drawn): 0.35
COC(=O)C1=C(C)NC(C)=C(C(=O)OC(C)C)C1c1cccc2nonc12 (stereo not drawn): 0.48
COC(=O)C[C@](O)(CCCC(C)(C)O)C(=O)O[C@@H]1C(OC)=C[C@]23CCCN2CCc2cc4c(cc2[C@H]13)OCO4: -7.88
c1ccc2[nH]c(-c3cscn3)nc2c1: 2.12
c1ccc(-c2ccc(C(c3ccccc3)n3ccnc3)cc2)cc1 (stereo not drawn): -1.15
NC(=O)N1c2ccccc2CC(=O)c2ccccc21: -1.3

Excerpt of the above (series 2):
CC(N)CCCC(C)(C)O (stereo not drawn): 79%
Nc1nc(N)c2nc(-c3ccccc3)c(N)nc2n1: 14.6%
CC(C)=CCC[C@](C)(O[C@@H]1O[C@H](CO[C@@H]2O[C@@H](CO)[C@H](O)[C@H]2O)[C@@H](O)[C@H](O)[C@H]1O)[C@H]1CC[C@]2(C)[C@@H]1[C@H](O)C[C@@H]1[C@@]3(C)CC[C@H](O[C@@H]4O[C@H](CO)[C@@H](O)[C@H](O)[C@H]4O[C@@H]4O[C@H](CO)[C@@H](O)[C@H](O)[C@H]4O)C(C)(C)[C@@H]3CC[C@]12C: 89.7%
OCCc1ccccc1: 130%
C[n+]1ccccc1/C=N/O: 110%
